Published values pooled from the literature.
Each numbered part is a random draw from the data of one study; scales do not carry over between parts.
UniProt Q15831, sequence (whole entry, looked up): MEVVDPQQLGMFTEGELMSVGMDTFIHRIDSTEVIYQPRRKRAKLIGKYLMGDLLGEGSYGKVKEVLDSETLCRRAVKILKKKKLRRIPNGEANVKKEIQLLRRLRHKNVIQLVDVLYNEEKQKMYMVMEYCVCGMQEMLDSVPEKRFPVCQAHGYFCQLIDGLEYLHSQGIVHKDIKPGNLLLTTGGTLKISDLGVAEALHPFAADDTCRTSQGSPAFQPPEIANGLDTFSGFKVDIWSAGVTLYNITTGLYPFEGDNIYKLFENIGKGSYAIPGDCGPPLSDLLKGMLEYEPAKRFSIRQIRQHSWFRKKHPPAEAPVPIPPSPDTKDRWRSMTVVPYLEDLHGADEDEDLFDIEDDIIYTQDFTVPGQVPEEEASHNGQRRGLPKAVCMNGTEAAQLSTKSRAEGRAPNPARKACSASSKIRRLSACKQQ
UniProt P07948, sequence (whole entry, looked up): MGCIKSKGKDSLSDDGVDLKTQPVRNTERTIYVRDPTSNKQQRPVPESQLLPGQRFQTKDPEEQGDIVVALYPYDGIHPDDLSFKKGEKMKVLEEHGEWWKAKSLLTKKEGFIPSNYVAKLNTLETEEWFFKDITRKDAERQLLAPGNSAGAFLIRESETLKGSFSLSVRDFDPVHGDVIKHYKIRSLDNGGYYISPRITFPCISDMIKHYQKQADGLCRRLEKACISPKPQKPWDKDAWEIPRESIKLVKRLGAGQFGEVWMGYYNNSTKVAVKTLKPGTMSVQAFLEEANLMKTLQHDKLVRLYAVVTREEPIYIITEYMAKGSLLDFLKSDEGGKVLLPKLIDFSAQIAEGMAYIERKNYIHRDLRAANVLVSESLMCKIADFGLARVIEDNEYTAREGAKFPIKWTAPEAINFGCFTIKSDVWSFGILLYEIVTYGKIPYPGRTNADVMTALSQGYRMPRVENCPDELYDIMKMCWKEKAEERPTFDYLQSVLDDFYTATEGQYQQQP
UniProt P51955, sequence (whole entry, looked up): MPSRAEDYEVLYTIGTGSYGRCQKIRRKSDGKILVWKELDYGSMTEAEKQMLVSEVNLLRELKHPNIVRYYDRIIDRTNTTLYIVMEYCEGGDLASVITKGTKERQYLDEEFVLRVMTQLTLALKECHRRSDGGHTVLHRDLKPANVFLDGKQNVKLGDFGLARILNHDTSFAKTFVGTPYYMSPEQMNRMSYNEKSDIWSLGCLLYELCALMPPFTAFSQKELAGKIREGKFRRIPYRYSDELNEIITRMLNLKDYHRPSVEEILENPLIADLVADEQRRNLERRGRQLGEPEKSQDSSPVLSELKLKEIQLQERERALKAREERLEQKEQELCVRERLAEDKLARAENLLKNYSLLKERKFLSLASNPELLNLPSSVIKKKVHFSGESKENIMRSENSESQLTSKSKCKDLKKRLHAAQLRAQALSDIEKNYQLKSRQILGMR
UniProt P36897, sequence (whole entry, looked up): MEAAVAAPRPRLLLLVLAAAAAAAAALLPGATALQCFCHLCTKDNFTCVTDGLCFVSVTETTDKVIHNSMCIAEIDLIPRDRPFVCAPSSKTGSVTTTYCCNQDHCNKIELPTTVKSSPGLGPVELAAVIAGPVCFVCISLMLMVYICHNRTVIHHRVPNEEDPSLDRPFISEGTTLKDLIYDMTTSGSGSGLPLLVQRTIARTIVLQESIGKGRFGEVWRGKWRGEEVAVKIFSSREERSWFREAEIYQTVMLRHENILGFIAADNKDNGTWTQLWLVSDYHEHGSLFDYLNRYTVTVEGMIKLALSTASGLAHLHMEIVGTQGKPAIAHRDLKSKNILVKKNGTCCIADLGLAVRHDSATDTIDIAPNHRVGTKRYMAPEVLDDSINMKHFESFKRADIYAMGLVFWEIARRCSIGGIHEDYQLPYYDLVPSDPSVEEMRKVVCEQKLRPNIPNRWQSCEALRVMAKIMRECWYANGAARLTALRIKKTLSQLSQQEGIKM
UniProt P53355, sequence (whole entry, looked up): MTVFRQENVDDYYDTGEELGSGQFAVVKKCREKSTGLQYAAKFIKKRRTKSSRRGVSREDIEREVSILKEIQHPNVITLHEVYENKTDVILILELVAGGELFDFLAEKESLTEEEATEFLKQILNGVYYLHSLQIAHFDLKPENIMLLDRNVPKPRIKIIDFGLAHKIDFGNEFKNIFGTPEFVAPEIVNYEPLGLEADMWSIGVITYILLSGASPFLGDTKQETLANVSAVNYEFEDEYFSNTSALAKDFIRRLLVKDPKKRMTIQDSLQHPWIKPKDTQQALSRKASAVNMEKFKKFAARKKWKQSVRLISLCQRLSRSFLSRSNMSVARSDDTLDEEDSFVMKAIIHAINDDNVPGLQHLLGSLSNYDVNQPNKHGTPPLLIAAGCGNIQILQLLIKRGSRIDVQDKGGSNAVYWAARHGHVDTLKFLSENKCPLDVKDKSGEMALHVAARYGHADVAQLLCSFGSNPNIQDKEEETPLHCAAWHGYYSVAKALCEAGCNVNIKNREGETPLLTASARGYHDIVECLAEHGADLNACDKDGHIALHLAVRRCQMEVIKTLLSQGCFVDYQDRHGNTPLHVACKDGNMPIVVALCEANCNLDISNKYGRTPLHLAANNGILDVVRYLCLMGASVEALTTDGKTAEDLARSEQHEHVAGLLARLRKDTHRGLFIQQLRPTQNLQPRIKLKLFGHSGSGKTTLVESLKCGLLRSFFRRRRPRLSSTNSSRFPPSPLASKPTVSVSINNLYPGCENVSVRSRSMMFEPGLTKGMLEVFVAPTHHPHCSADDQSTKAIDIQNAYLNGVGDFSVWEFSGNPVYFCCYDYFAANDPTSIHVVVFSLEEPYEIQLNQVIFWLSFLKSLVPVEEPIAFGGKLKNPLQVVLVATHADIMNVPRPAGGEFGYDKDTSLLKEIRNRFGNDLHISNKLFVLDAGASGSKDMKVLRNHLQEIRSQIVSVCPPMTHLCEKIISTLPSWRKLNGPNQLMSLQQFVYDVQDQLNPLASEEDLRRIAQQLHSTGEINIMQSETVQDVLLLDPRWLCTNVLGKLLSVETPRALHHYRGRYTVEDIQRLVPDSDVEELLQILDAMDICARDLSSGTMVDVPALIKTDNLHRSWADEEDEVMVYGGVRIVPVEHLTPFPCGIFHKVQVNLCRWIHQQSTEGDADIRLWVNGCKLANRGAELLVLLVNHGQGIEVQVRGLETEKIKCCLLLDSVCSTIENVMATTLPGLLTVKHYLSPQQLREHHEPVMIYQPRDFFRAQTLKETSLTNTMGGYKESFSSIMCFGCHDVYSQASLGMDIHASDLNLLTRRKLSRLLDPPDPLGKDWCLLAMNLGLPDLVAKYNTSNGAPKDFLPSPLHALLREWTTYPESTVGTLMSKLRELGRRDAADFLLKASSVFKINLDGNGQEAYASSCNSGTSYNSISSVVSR
UniProt Q96RR4, sequence (whole entry, looked up): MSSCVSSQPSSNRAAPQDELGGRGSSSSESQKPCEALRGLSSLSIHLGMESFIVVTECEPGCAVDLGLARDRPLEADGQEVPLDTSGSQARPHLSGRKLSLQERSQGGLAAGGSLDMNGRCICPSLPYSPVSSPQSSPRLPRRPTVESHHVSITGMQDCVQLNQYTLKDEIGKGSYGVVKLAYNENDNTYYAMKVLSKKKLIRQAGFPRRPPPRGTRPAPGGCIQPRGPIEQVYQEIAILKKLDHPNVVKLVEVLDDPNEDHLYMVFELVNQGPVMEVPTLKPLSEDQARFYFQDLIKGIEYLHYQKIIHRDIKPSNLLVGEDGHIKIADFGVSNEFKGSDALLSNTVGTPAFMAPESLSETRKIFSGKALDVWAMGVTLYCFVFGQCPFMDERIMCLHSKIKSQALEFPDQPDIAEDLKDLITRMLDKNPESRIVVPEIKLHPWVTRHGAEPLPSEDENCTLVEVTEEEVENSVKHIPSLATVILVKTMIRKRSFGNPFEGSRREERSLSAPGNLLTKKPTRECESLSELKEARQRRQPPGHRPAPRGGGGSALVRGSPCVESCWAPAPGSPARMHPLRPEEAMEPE
UniProt O14920, sequence (whole entry, looked up): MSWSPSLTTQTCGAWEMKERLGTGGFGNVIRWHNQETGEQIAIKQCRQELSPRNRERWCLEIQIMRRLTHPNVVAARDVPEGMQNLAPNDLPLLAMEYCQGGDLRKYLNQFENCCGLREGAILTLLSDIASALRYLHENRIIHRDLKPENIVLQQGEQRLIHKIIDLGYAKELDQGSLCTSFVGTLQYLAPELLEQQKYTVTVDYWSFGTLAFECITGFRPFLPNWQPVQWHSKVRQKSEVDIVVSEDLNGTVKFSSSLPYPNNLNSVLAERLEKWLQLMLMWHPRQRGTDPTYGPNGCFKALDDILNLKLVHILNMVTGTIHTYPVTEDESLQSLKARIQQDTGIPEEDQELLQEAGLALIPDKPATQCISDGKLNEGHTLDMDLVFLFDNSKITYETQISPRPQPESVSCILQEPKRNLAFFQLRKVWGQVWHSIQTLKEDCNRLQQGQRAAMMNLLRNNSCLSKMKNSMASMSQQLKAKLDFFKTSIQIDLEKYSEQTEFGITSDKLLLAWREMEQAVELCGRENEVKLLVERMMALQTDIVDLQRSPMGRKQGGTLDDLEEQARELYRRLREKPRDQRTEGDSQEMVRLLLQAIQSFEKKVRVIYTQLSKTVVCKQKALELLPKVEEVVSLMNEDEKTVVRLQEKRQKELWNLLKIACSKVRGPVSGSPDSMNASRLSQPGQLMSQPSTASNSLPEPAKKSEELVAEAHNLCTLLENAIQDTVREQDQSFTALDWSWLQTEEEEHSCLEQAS

Block 1
Compound: O=C1NC(=O)c2c1c1c3ccccc3[nH]c1c1[nH]c3cc(Br)ccc3c21
Effect on: enzyme activity
Mode: inhibitor
Concentration: 0.5 µM
Baseline: control
For STK10 (Homo sapiens, UniProt O94804): remaining activity read 84.6%.
IKBKE (Homo sapiens, UniProt Q14164) — remaining activity: 83.4%.
It gave 37.5% for remaining activity (CHEK2 (Homo sapiens, UniProt O96017)).
The remaining activity was 92.2% (IKBKB (Homo sapiens, UniProt O14920)).
It gave 92.1% for remaining activity (Tyrosine-protein kinase Lyn, isoform B (LYN, Homo sapiens, UniProt P07948)).
The remaining activity was 103% (PRKACA (Homo sapiens, UniProt P17612)).
Cyclin-dependent kinase 5, with p25 (CDK5, Homo sapiens, UniProt Q00535) — remaining activity: 43.4%.
NEK2 (Homo sapiens, UniProt P51955) — remaining activity: 92%.
For STK11 (Homo sapiens, UniProt Q15831): remaining activity read 90.2%.
It gave 61.8% for remaining activity (TGFBR2 (Homo sapiens, UniProt P37173)).
It gave 105% for remaining activity (MAP3K3 (Homo sapiens, UniProt Q99759)).
For STK39 (Homo sapiens, UniProt Q9UEW8): remaining activity read 90.7%.
The remaining activity was 95.2% (GRK3 (Homo sapiens, UniProt P35626)).
For OXSR1 (Homo sapiens, UniProt O95747): remaining activity read 95.8%.
TGFBR1 (Homo sapiens, UniProt P36897) — remaining activity: 96.9%.
The remaining activity was 72.5% (PRKCA (Homo sapiens, UniProt P17252)).
cGMP-dependent protein kinase 1, isoform beta (PRKG1, Homo sapiens, UniProt Q13976) — remaining activity: 90.7%.
For MAPK9 (Homo sapiens, UniProt P45984): remaining activity read 99.6%.
It gave 78.6% for remaining activity (Protein kinase C beta type, isoform beta-I (PRKCB, Homo sapiens, UniProt P05771)).
Cyclin-dependent kinase 4, with cyclin D1 (CDK4, Homo sapiens, UniProt P11802) — remaining activity: 84.9%.
It gave 48.1% for remaining activity (CAMKK2 (Homo sapiens, UniProt Q96RR4)).
For DAPK1 (Homo sapiens, UniProt P53355): remaining activity read 73.5%.
The remaining activity was 63.1% (CAMK2D (Homo sapiens, UniProt Q13557)).
The remaining activity was 98.4% (DAPK2 (Homo sapiens, UniProt Q9UIK4)).

Block 2
Target: RNA binding protein fox-1 homolog 2, RRM domain, GST-SBP tag (RBFOX2, Homo sapiens, UniProt O43251-10, residues 100-194)
Technique: RNA Bind-n-Seq
Molecule type: RNA
Sample: in vitro
Concentration: 365 nM
Setting: natural RNA segment, single round, ends assumed
Baseline: no-protein control
Direction: higher = stronger binding
Target sequence (chain): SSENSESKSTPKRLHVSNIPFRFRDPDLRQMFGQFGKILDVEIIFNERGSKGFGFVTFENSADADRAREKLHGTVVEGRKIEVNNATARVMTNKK
For `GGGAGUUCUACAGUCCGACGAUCCCCUACCCCUCUCCCCCAAAUGCAGCUGAAGCAUUUUACAGUGGUUUGCCAUUAGGGUAUUCAUUCAGAUAAUGUUUUCCUACUAGGAAUUACAAACUUUAAACACUUUUUGGAAUUCUCGGGUGCCAA`, “RBNS enrichment (R)” read 0.737.
`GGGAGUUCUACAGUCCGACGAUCCUCUGUGUUUAUGUGUGUGUGUCUGUGUGAGAGAAGAAAAAUCUGUAGAGAAGAGGCACGCUUAUGACUAUUGUUCAAAUACAUAAAAACAGUUAUUUUAAAACAGUCCAUGGAAUUCUCGGGUGCCAA` — result for “RBNS enrichment (R)”: 3.34.
Under “RBNS enrichment (R)”, `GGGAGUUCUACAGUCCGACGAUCCCUCGUGCCUGGCUCGUCUGCCACCUACAUUUCUCUUUCCAGCUGCUGUUUUGUAAAAAGAAAAAGAAAAAAGAAGCCCAAACUAGUGAGAGUAAUAUCUAAUUAUCUCAUGGAAUUCUCGGGUGCCAA` is recorded as 0.355.
`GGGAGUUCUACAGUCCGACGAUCUCCUCUCCCAUCAAAUGGCAUUAACACAAUUGGUAAAGAUGGUCCCUCAAAUGACUCCCCCCCCCCCAUUUUUGUCUUUGGGAACUGAAGUCAGAGGCACCAAGUCUAACUGGAAUUCUCGGGUGCCAA`: “RBNS enrichment (R)” 0.772.
For `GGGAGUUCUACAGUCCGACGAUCUGGGACAGACCUCAGAGAUUGUGAAUGCAGUGCCAAGCUCACAGGCUGCAAGGGCCAGGCCAGAAAAGGGCGGGCCUGCAGCCUGCACCCCCCACCUUCCCCAACCCUUCUGGAAUUCUCGGGUGCCAA`, “RBNS enrichment (R)” read 0.307.
Under “RBNS enrichment (R)”, `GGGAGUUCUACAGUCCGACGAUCAAUUGUAUCCUGGUUUCCCCAUCUCCUUAUCCUGAUUUCUCAUUGCUCUUCUGUCCUGCCUCACUGUAACUGCCUCCAUUCUGUGCAGUCUACAGUAAGAAUGCCUGCUUUGGAAUUCUCGGGUGCCAA` is recorded as 0.648.
Under “RBNS enrichment (R)”, `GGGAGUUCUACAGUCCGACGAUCUUGUCUGUGAUAACAGAGUGAUUUGUAAAACAGUGGUUGUUUUUUCAUUGUGUUUUCUUCGUGGAUUGUUUUUUCUGCGGGUCAUAUUCAUACCUUCUGAUGAAGUUGUAUGGAAUUCUCGGGUGCCAA` is recorded as 0.901.
Under “RBNS enrichment (R)”, `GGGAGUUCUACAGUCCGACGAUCAAUCAGAAUUGUUAUCUUUGUUCAGGUAAAAUGAGUUGCAAGAUAUUGUGGGUACUUUUGUGUGCUCAUUUGUGUUUUCCCCCCCUCCUACAACAUUUUUUUAACCCCAAUGGAAUUCUCGGGUGCCAA` is recorded as 0.555.

Block 3
SMILES: CC1=C(C#N)[C@@H](c2ccc3[nH]nc(C)c3c2)C(C#N)=C(c2ccc(Cl)cc2)N1
Effect on: cell-free assay
Technique: competition with immobilised ligand
Concentration: 1 µM
For LIM domain kinase 1 (LIMK1, Homo sapiens, UniProt P53667): remaining binding read 100%.
CHEK1 (Homo sapiens, UniProt O14757) — remaining binding: 100%.
FLT3 (Homo sapiens, UniProt P36888, N841I) — remaining binding: 100%.
It gave 100% for remaining binding (IGF1R (Homo sapiens, UniProt P08069)).
The remaining binding was 91.6% (CDK11B (Homo sapiens, UniProt P21127)).

Block 4
Target: PABPC1L2, full length, GST fusion (mouse, UniProt A0ABA7IW68)
Technique: RNAcompete
Molecule type: RNA
Sample: in vitro
Concentration: 20 nM
Setting: 7-mer, probes averaged, single round
Baseline: mean of 7-mers
Direction: higher = stronger binding
Construct (chain): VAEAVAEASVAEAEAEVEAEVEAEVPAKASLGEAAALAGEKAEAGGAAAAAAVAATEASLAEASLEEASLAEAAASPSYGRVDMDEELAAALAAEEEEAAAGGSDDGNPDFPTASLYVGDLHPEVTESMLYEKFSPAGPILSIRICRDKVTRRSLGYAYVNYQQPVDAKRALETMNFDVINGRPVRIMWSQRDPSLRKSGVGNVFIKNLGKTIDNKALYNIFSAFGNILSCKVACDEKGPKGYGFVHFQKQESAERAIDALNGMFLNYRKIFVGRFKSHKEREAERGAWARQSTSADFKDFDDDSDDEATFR
`CCACGCA` gave a 7-mer Z-score of -0.0844.
For `GUUAGCA`, the 7-mer Z-score was -0.166.
`AAAGGGC` has a 7-mer Z-score of 1.21.
`UACGACG` has a 7-mer Z-score of -0.155.
`GAGUCGU` has a 7-mer Z-score of -0.45.
For `CUGAACU`, the 7-mer Z-score was -0.226.
`CGUAUAU` has a 7-mer Z-score of -0.237.
The 7-mer Z-score of `GGCCGCG` is reported as -0.13.

Block 5
Target: UBE2L3 UBC core domain (UniProt P68036)
UniProt P68036, sequence (whole entry, looked up): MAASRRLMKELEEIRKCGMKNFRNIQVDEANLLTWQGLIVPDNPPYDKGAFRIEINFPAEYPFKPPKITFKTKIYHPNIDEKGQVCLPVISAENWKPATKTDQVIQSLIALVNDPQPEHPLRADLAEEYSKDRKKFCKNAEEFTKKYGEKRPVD
Technique: yeast two-hybrid
Sample: yeast
Setting: mostly zero background
Baseline: not given
Direction: higher = stronger interaction
B1: TRIM72 RING domain (UniProt Q6ZMU5); chain APGLLHQELSCPLCLQLFDAPVTAECGHSFCRACLGRVAGEPAADGTVLCPCCQAPTRPQALST
B2: TRIM69 RING domain (UniProt Q86WT6); chain VIQDITMELHCPLCNDWFRDPLMLSCGHNFCEACIQDFWRLQAKETFCPECKMLCQYNNCTF
B3: ZNF598 RING domain (UniProt Q86UK7); chain AAAPERGGGSCVLCCGDLEATALGRCDHPVCYRCSTKMRVLCEQRYCAVCREELRQVVFGK
B4: ARK2C RING domain (UniProt Q6ZSG1); chain EGEESDTDEKCTICLSMLEDGEDVRRLPCMHLFHQLCVDQWLAMSKKCPICRVDIETQLGAD
`B1 (TRIM72 RING domain)` — result for “lacZ reporter activity”: 0.
`B2 (TRIM69 RING domain)` — result for “lacZ reporter activity”: 0.
Under “lacZ reporter activity”, `DAIPSLSECQCGICMEILVEPVTLPCNHTLCKPCFQSTVEKASLCCPFCRRRVSSWTRYH (RNF168 RING domain (UniProt Q8IYW5))` is recorded as 0.
`B3 (ZNF598 RING domain)` — result for “lacZ reporter activity”: 0.
`B4 (ARK2C RING domain)`: “lacZ reporter activity” 0.
For `YWAMDSTFELCKICAESNKDVKIEPCGHLLCSCCLAAWQHSDSQTCPFCRCEIKGWEAVS (CBLC RING domain (UniProt Q9ULV8))`, “lacZ reporter activity” read 0.
Under “lacZ reporter activity”, `QLRRLQEERTCKVCMDKEVSIVFIPCGHLVVCKDCAPSLRKCPICRSTIKGTVRTF (BIRC3 RING domain (UniProt Q13489))` is recorded as 0.
Under “lacZ reporter activity”, `FASPPDSNFVCSVCHGVLKRPARLPCSHIFCKKCILRWLARQKTCPCCRKEVKRKKVVH (RNF151 RING domain (UniProt Q2KHN1))` is recorded as 0.

A few entries again (block 4):
`UACGACG` has a 7-mer Z-score of -0.155.
`GAGUCGU` has a 7-mer Z-score of -0.45.
For `CUGAACU`, the 7-mer Z-score was -0.226.
`CGUAUAU` has a 7-mer Z-score of -0.237.
